Measured values of several laboratories.
Each line is one published result; not all experiments were run side by side. ± marks the error that the study gave.

Compound | test system | conditions | tissue uptake
CCCC[C@H](NC(=O)COCCOCCNC(=O)c1ccc(NN)nc1)C(=O)N[C@H]1CC(=O)NCCCC[C@@H](C(N)=O)NC(=O)[C@H](Cc2c[nH]c3ccccc23)NC(=O)[C@H](CCCNC(=N)N)NC(=O)[C@@H](Cc2ccccc2)NC(=O)[C@H](Cc2c[nH]cn2)NC1=O [technetium-99m labelled] | C57 mouse, female, B16/F1 melanoma, intestines | intravenous, 0.037 MBq, 2 h | 0.99 ± 0.55 %ID
CCCC[C@H](NC(=O)CNC(=O)CNC(=O)c1ccc(NN)nc1)C(=O)N[C@H]1CC(=O)NCCCC[C@@H](C(N)=O)NC(=O)[C@H](Cc2c[nH]c3ccccc23)NC(=O)[C@H](CCCNC(=N)N)NC(=O)[C@@H](Cc2ccccc2)NC(=O)[C@H](Cc2c[nH]cn2)NC1=O [technetium-99m labelled] | C57 mouse, B16/F1 melanoma-bearing, muscle | intravenous, 0.5 h | 0.27 ± 0.05 %ID/g
CSCC[C@H](NC(=O)[C@H](CC(C)C)NC(=O)[C@H](Cc1c[nH]cn1)NC(=O)CNC(=O)[C@@H](NC(=O)[C@H](C)NC(=O)[C@H](Cc1c[nH]c2ccccc12)NC(=O)[C@H](CCC(N)=O)NC(=O)CCCCCCCNC(=O)CCC(=O)Nc1ccc(CNC23CNCCNCC(N)(CNCCNC2)CNCCNC3)cc1)C(C)C)C(N)=O [copper-64 labelled] | female SCID mice, PC-3 xenograft, bone | intravenous, 0.6 MBq, 4 h | 0.815 ± 0.035 %ID/g
N=C(N)NCCC[C@@H]1NC(=O)[C@H](CCCCNC(=O)CNC(=O)CNC(=O)CNC(=O)CC[C@H](NC(=O)CCOCCOCCOCCOCCNC(=O)CC[C@H](NC(=O)CN2CCN(CC(=O)O)CCN(CC(=O)O)CCN(CC(=O)O)CC2)C(=O)NCCOCCOCCOCCOCCC(=O)N[C@@H](CCC(=O)NCC(=O)NCC(=O)NCC(=O)NCCCC[C@@H]2NC(=O)[C@@H](Cc3ccccc3)NC(=O)[C@H](CC(=O)O)NC(=O)CNC(=O)[C@H](CCCNC(=N)N)NC2=O)C(=O)NCC(=O)NCC(=O)NCC(=O)NCCCC[C@@H]2NC(=O)[C@@H](Cc3ccccc3)NC(=O)[C@H](CC(=O)O)NC(=O)CNC(=O)[C@H](CCCNC(=N)N)NC2=O)C(=O)NCC(=O)NCC(=O)NCC(=O)NCCCC[C@@H]2NC(=O)[C@@H](Cc3ccccc3)NC(=O)[C@H](CC(=O)O)NC(=O)CNC(=O)[C@H](CCCNC(=N)N)NC2=O)NC(=O)[C@@H](Cc2ccccc2)NC(=O)[C@H](CC(=O)O)NC(=O)CNC1=O [indium-111 labelled] | female athymic nude mice, bone | intravenous, 3 µCi, 1 h, U-87 MG glioma xenograft | 1.76 ± 0.26 %ID/g
C[C@@H](O)[C@H](NC(=O)[C@@H]1CSSC[C@H](NC(=O)[C@@H](Cc2ccccc2)NC(=O)CN2CCCN3CCN(CCCN(CP(=O)(O)O)CC3)CC2)C(=O)N[C@@H](Cc2ccc(O)cc2)C(=O)N[C@H](Cc2c[nH]c3ccccc23)C(=O)N[C@@H](CCCCN)C(=O)N[C@@H]([C@@H](C)O)C(=O)N1)C(=O)O [copper-64 labelled] | Lewis rat, male, tumour-bearing, adrenals | injection, 4 h, with: Y3-TATE 200 µg co-injected | 0.2 ± 0.02 %ID/g
N=C(N)NCCC[C@@H]1NC(=O)[C@H](CCCCNC(=O)CC[C@H](NC(=O)CCOCCOCCOCCOCCNC(=O)CN2CCN(CC(=O)O)CCN(CC(=O)O)CCN(CC(=O)O)CC2)C(=O)NCCCC[C@@H]2NC(=O)[C@@H](Cc3ccccc3)NC(=O)[C@H](CC(=O)O)NC(=O)CNC(=O)[C@H](CCCNC(=N)N)NC2=O)NC(=O)[C@@H](Cc2ccccc2)NC(=O)[C@H](CC(=O)O)NC(=O)CNC1=O [indium-111 labelled] | female athymic nude mice, blood | intravenous, 3 µCi, 0.5 h, U-87 MG glioma xenograft | 1.13 ± 0.13 %ID/g
CCCC[C@H](NC(=O)CCCCCCCNC(=O)c1ccc(NN)nc1)C(=O)N[C@H]1CC(=O)NCCCC[C@@H](C(N)=O)NC(=O)[C@H](Cc2c[nH]c3ccccc23)NC(=O)[C@H](CCCNC(=N)N)NC(=O)[C@@H](Cc2ccccc2)NC(=O)[C@H](Cc2c[nH]cn2)NC1=O [technetium-99m labelled] | C57 mouse, B16/F1 melanoma, intestines | intravenous, 0.037 MBq, 4 h | 3.43 ± 0.76 %ID
N=C(N)NCCC[C@@H]1NC(=O)[C@H](CCCCNC(=O)CC[C@H](NC(=O)CCOCCOCCOCCOCCNC(=O)CC[C@H](NC(=O)CN2CCN(CC(=O)O)CCN(CC(=O)O)CCN(CC(=O)O)CC2)C(=O)NCCOCCOCCOCCOCCC(=O)N[C@@H](CCC(=O)NCCCC[C@@H]2NC(=O)[C@@H](Cc3ccccc3)NC(=O)[C@H](CC(=O)O)NC(=O)CNC(=O)[C@H](CCCNC(=N)N)NC2=O)C(=O)NCCCC[C@@H]2NC(=O)[C@@H](Cc3ccccc3)NC(=O)[C@H](CC(=O)O)NC(=O)CNC(=O)[C@H](CCCNC(=N)N)NC2=O)C(=O)NCCCC[C@@H]2NC(=O)[C@@H](Cc3ccccc3)NC(=O)[C@H](CC(=O)O)NC(=O)CNC(=O)[C@H](CCCNC(=N)N)NC2=O)NC(=O)[C@@H](Cc2ccccc2)NC(=O)[C@H](CC(=O)O)NC(=O)CNC1=O [indium-111 labelled] | female athymic nude mice, lungs | intravenous, 3 µCi, 72 h, U-87 MG glioma xenograft | 0.33 ± 0.03 %ID/g
CSCC[C@H](NC(=O)[C@H](CC(C)C)NC(=O)[C@H](Cc1c[nH]cn1)NC(=O)CNC(=O)[C@@H](NC(=O)[C@H](C)NC(=O)[C@H](Cc1c[nH]c2ccccc12)NC(=O)[C@H](CCC(N)=O)NC(=O)CCCCCNC(=O)CNC(=O)CNC(=O)CNC(=O)CSC(C)=O)C(C)C)C(N)=O [technetium-99m labelled] | nude mouse, PC-3 xenograft, blood | 30 min | 0.72 ± 0.15 %ID/g

Excerpt of the above:
Compound | test system | conditions | tissue uptake
CSCC[C@H](NC(=O)[C@H](CC(C)C)NC(=O)[C@H](Cc1c[nH]cn1)NC(=O)CNC(=O)[C@@H](NC(=O)[C@H](C)NC(=O)[C@H](Cc1c[nH]c2ccccc12)NC(=O)[C@H](CCC(N)=O)NC(=O)CCCCCCCNC(=O)CCC(=O)Nc1ccc(CNC23CNCCNCC(N)(CNCCNC2)CNCCNC3)cc1)C(C)C)C(N)=O [copper-64 labelled] | female SCID mice, PC-3 xenograft, bone | intravenous, 0.6 MBq, 4 h | 0.815 ± 0.035 %ID/g
